Experimental data gathered from unrelated publications.
A part holds a random share of what one study measured. Changes are numbered by the printed parent chain.

Set 1 — technique: RNA Bind-n-Seq; form: RNA; medium: in vitro; tested at: not given; reference: input RNA pool; reading: higher = stronger binding
Target: RING finger protein unkempt homolog, zinc fingers 1-6, GST-SBP tag (UNK, Homo sapiens, UniProt Q9C0B0, residues 30-357)
Chain of UniProt Q9C0B0 (30-357, looked up): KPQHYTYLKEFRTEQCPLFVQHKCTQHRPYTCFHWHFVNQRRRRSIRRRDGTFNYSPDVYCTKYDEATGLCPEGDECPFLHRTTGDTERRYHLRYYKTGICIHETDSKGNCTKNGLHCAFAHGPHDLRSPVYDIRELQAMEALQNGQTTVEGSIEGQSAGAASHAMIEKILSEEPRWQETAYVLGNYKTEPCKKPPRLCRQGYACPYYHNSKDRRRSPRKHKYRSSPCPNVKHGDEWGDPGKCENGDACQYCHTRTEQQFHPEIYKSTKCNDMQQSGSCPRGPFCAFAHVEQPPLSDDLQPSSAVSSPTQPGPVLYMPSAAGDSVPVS
Setting: RNA with constant flanks, human-mouse chimeric sites, ends assumed
Oligonucleotide | bound/input enrichment [ratio]
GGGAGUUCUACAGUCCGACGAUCCUCAGAGAUGUGGCAUAUCAAUAUGUGAAAAAGGGGGCUCGAAUUUAUGUGGAAGGGAAAGUGGACUAUGGCGAGUACAUGGAUAAAAACAAUGUGAGGCGGCAAGCAACAACAAUCAUACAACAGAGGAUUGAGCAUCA | 0.414
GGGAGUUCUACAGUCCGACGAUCACCAUUUUCGCGGUUCAGGCUUUGUGUGUAGUUCACUUACGGUAUUAAAUUAUUAUUCUGCUUAGCUUAUAAUAAGGAUUACAAUUGUUAAAGAGGUUACUGAAUGUUACUCUGAAACUUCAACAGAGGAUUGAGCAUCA | 0.738
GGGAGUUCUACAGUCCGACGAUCUACUACUAUGAUGGUGAUAUUGGCAAUUAUUAUUAUGGACAGGGUCAUCCCAUGAAGCCUCAUAGAAUCCGGAUGACUCAUAACUUGCUGCUAAAUUAUGGUUUAUACAGAAAAAUGGAACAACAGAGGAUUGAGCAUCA | 0.287
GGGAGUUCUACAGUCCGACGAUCAGCACAACCCCAGCAAAGCUAAGAAAUCCUUGUACAAGUGAACAAAACUGCACCAGCCCAUUUAGCUACAAAAAUGUGCUCAGUCUUACUAAUAAAGGAGAGUUUUUCAAUGAACUUGUUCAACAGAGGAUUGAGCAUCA | 0.718
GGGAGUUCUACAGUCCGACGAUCAAAGAACCUCUCUCUGAAGAAGAGGAAGAAGACAAUGAUGAUGUUGAACCCAUUUCUGAAUUUCGAUUUGUGCCCAGUGAUAAGUCAGCAUUGGAGGCGAUGUUCACAGCAAUGUGUGAGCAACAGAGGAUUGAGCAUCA | 0.315
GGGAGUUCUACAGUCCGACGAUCCUGUGACCACAAGAUCCUACCUGAGUGGCAGCUGAAGUUGACUCCCUCUCCUUGCCUGAACCCCCCCCCACUGCCCCUUGAGUCCACAGUGUCGGCUAUUCUCUGGUCUCUGCACGGUUCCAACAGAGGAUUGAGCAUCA | 0.323
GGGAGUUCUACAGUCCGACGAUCAUGGAACAUUUCGAUGCGUCACUCAGUACCUAUUUCAAGGCAUUGCUGGGCCCCCGAGAUACAAGAGUCAAAGGAUGGUUCCUCCUGGACAAUUACAUCCCUACGUUUGUCUGUUCUGUUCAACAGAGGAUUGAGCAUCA | 0.101
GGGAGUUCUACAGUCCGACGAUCAGAGCCCAGGAUGUUGAUGCUACAAACCCAAAUUACGAAAUUAUGUGUAUGAUCAGAGACUUUAGAGGGAGCUUGGAUUACAGACCCCUAACAACAGCAGAUCCUAUUGAUGAACAUAGGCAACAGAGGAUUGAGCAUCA | 0.491
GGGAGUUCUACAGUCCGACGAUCCAGGGCAUCAUCUCUCGUGCUGUUAGACACCUGUUCAAGAGUAUUGAAGAAAAAAAAACCUCAGCGAUUAAAAACGGGCUGCCCCCUCCUGAAUUCAAAGUGAAUGCCCAGUUCCUAGAGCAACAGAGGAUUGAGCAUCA | 0.633
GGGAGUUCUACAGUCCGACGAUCGGUGGGGUGGUCAUUGCCGUUUGAGCUGCUGAUUUUCAUGAGUCGCCUUCAAAACUCUCGUGUAGGGUUGACACUGUGGGGGGGUGGGGGAUCCAGCUUAUUCUUUUAUUUUCAAGUCCACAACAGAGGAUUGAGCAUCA | 0.452
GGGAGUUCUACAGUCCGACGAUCCCUGCUCAGAUCACCAUGAAAGUAAUCCAAGGCCUAUAUAGUGGGGUCACCACAGUGGAACUAGAUACCCUGGCUGCUGAGACAGCCGCGACCUUGACCACGAAGCACCCUGACUAUGCCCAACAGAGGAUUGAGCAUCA | 0.169

Set 2 — technique: protein-binding microarray; form: double-stranded DNA, one strand shown; medium: in vitro; tested at: not given; reading: higher = stronger binding
Target: Protein max, full length (MAX, Homo sapiens, UniProt P61244-2, residues 1-151)
Setting: k-mer, scored over probes, only values ≥0.25
Oligonucleotide | E-score
CGTGATCA | 0.332
ATGCAGGC | 0.271
CCCGCACG | 0.359
ACGTGTCC | 0.418
AGGCCATG | 0.259
GTGTGTCA | 0.255
AGGGCACG | 0.337
AACACCTG | 0.366
CACGCCCG | 0.323
CAGTGTGA | 0.292

Set 3 — target: CCNE2, cyclin fold, Cln2 fusion (human); technique: yeast growth competition, sequencing; medium: yeast; setting: weak parent motif; reference: not given; reading: higher = stronger binding
Starting sequence: DBF4B docking peptide (human); LGYLYLLLTQSLW
Variant | normalised enrichment score
L6A | 0.425
T9A | 0.753
W13A | 0.532
Q10A | 1.18
L7A | 0.627
L4A | 1.01

Set 4 — technique: DHFR PCA, deep sequencing; medium: yeast; with: (+)-ABA 710 µM; reference: wild-type fitted maximum; reading: higher = stronger binding
Target: ABI1, truncated, D143A, DHFR fusion (Arabidopsis thaliana)
Setting: methotrexate growth selection, single substitutions
Starting sequence: PYL1, truncated, DHFR fusion (Arabidopsis thaliana); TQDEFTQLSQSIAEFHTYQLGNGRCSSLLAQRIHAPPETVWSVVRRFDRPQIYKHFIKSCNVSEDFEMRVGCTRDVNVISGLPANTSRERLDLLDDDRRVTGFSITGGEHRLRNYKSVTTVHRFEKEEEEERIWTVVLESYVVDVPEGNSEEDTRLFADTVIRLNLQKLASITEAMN
Variant | relative binding score [%]
T101G | 49.3
A13T | 95.4
S117N | 52.2
E147K | 96.8
F103C | 15.1
R98M | 103
H34L | 98.8
Q2S | 106
T101K | 38.1
F15G | 43.2
Q10V | 105
M176F | 89.4
R74D | -2.23
N165S | 59.3

Set 5 — technique: RNA Bind-n-Seq; form: RNA; medium: in vitro; tested at: 365 nM; reference: no-protein control; reading: higher = stronger binding
Target: RNA binding protein fox-1 homolog 2, RRM domain, GST-SBP tag (RBFOX2, Homo sapiens, UniProt O43251-10, residues 100-194)
Setting: natural RNA segment, single round, ends assumed
Target sequence (chain): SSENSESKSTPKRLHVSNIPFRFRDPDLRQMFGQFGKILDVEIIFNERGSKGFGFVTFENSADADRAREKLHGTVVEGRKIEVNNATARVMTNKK
Oligonucleotide | RBNS enrichment (R)
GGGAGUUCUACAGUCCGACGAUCUGUGACUCUCCCCAAAUUGCCCUGUUGCCUUGAGCUCUUCUGAGCUAAGGCAGCCUUCAGUCCCUAUCAGCGCCUCCUUUACUUCCCAGAGAACUUCACAGAGACUCUGUUGGAAUUCUCGGGUGCCAA | 0.459
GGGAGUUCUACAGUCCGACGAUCUUGGAUAUGGAUUUAAAUGGUCUCUAAGAGCCGGGGGUAGGGGGCAGGAAAAGUGGGUUGUCUUUGCCCCUCAAAGUCCACCUACCUAGAAACCAAGCCCACGGUCUUGGUGGAAUUCUCGGGUGCCAA | 0.39
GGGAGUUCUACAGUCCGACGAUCACAUCUGUCUGUGUUAAAAUAAUCAAACGAAAAAUCAGUCCUGUGUUGUCAGCAUGAUUCAUGUAUUUAUAUAGAUUUGAUUAUUUUAAUUUUCCUGUCUCUUUUUUUUGUGGAAUUCUCGGGUGCCAA | 2.15
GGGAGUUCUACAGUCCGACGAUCAGUUUUAAUGCCAUUAGUUGUCAUGAAAGAAGUUAGUGUGCUCUCUGUAAUAAAUGUGCCUCUGAGGAACAUUCCUCCUUCCUAGAGGAGGGCUCUAAGAGGAACCAUCUUGGAAUUCUCGGGUGCCAA | 0.284
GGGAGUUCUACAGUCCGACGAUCACGCUGAACUGGUGUAGCAUGUGGUGCAGCAUUCAGUGAAACUGGCUGGAGGAAAUAGGCUUGUUUCCAGAGUUGUCCUUAUACAAAAUGUAUAAAAAGCAGUUUCUGGUUGGAAUUCUCGGGUGCCAA | 13.9
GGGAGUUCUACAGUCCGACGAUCCCAGACCAGUCUUAUAGUAAAUAAGCAGAGUUCUGUGUCAGCUCAUGGCUGAUCUCUCCUCAAAGAGGUGAGUAGAAAAGAGAUUCUUGUUUAAAAGAGUCUAGCAAGAAUGGAAUUCUCGGGUGCCAA | 0.336
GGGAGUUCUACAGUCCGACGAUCCCUCCCACUUGGUCCCACCCACGACACGUGGGAAUUGUGGGAGCUACAAUUCAAGAUGAGAUUUGGAUGGGACACAGCCAAACCAUAUCAAUAGGUAUUAUUUUAUCCCCUGGAAUUCUCGGGUGCCAA | 0.384
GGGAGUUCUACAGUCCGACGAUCCCACACCACACCAGCUGGUGCUGCCCAUGUCUGUCGAAUCAUAACGGAAAAUUCCCCAGAUCACGUUUGGAUUUAAAAACUCAUCCCUUGUCGUGCUUCAAUGCAUGCCAUGGAAUUCUCGGGUGCCAA | 0.413
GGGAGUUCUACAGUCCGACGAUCGGAGCCACGGCCCCAGUAAGUAAUUUUCCAAGUUGAUAGGCUCGUGAAAGCUGAACAUUACCGAUAAGGCACAGGUUCCUUUUGAACAUGUUUUUCUCACUUAGGUCUCAUGGAAUUCUCGGGUGCCAA | 0.294
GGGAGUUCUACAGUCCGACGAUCCGCCCAGUUUCUGAGGUCAGACGAGUGUCUGCGAUGUCUUCCCGCACUCUAUUCCCCCAGCCUCUUUCUGCUUUCAUGCUCAGCACAUCAUCUUCCUAGGCAGUCUCUUCUGGAAUUCUCGGGUGCCAA | 0.705
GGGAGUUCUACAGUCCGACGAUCGAGUUAAUUUUAUUGAUAAUAAAUUAUACACCAUGAAACUGCUCUUGGGCUACUGUAGAUUUGUAUCCUUGGUGAAUUUGGGGUUCCCAUCGGAUUGAACAUACACUGUAUGGAAUUCUCGGGUGCCAA | 0.446
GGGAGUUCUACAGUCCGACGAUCUGGGGCUCAAGCCUGGUGCACUUAGUAUAGAAGAGCUAACGUACUCAGGCUUGUGCCACGGGUGAGCACUGAGGCCCCAGGUGUCCUCCCUCCCCCACUGUCUGGGACACUGGAAUUCUCGGGUGCCAA | 0.419

Repeated from above (set 5):
Oligonucleotide | RBNS enrichment (R)
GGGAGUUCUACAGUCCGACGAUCGAGUUAAUUUUAUUGAUAAUAAAUUAUACACCAUGAAACUGCUCUUGGGCUACUGUAGAUUUGUAUCCUUGGUGAAUUUGGGGUUCCCAUCGGAUUGAACAUACACUGUAUGGAAUUCUCGGGUGCCAA | 0.446
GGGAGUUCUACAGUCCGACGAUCUGUGACUCUCCCCAAAUUGCCCUGUUGCCUUGAGCUCUUCUGAGCUAAGGCAGCCUUCAGUCCCUAUCAGCGCCUCCUUUACUUCCCAGAGAACUUCACAGAGACUCUGUUGGAAUUCUCGGGUGCCAA | 0.459
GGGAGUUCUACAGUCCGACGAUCCGCCCAGUUUCUGAGGUCAGACGAGUGUCUGCGAUGUCUUCCCGCACUCUAUUCCCCCAGCCUCUUUCUGCUUUCAUGCUCAGCACAUCAUCUUCCUAGGCAGUCUCUUCUGGAAUUCUCGGGUGCCAA | 0.705
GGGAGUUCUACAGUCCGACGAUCCCUCCCACUUGGUCCCACCCACGACACGUGGGAAUUGUGGGAGCUACAAUUCAAGAUGAGAUUUGGAUGGGACACAGCCAAACCAUAUCAAUAGGUAUUAUUUUAUCCCCUGGAAUUCUCGGGUGCCAA | 0.384
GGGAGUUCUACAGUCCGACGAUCACAUCUGUCUGUGUUAAAAUAAUCAAACGAAAAAUCAGUCCUGUGUUGUCAGCAUGAUUCAUGUAUUUAUAUAGAUUUGAUUAUUUUAAUUUUCCUGUCUCUUUUUUUUGUGGAAUUCUCGGGUGCCAA | 2.15
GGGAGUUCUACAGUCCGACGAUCACGCUGAACUGGUGUAGCAUGUGGUGCAGCAUUCAGUGAAACUGGCUGGAGGAAAUAGGCUUGUUUCCAGAGUUGUCCUUAUACAAAAUGUAUAAAAAGCAGUUUCUGGUUGGAAUUCUCGGGUGCCAA | 13.9
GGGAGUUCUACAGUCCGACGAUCCCACACCACACCAGCUGGUGCUGCCCAUGUCUGUCGAAUCAUAACGGAAAAUUCCCCAGAUCACGUUUGGAUUUAAAAACUCAUCCCUUGUCGUGCUUCAAUGCAUGCCAUGGAAUUCUCGGGUGCCAA | 0.413
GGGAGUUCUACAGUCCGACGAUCUUGGAUAUGGAUUUAAAUGGUCUCUAAGAGCCGGGGGUAGGGGGCAGGAAAAGUGGGUUGUCUUUGCCCCUCAAAGUCCACCUACCUAGAAACCAAGCCCACGGUCUUGGUGGAAUUCUCGGGUGCCAA | 0.39
